Results from different studies.
Protocols differ between the studies behind these lines. ± gives the spread as reported.

With `CCCc1cc(O)c(C/C=C(\C)CCC=C(C)C)c(O)c1` the plasma concentration was 1500 ± 400 ng/mL (LC-MS/MS; Scn1a+/− mice, plasma; intraperitoneal, 30 mg/kg, after hyperthermia protocol).
`Clc1nc[n]([Au][PH](c2ccccc2)(c2ccccc2)c2ccccc2)c1Cl` gave a plasma concentration of 14300 ng/mL (NCG mouse; intraperitoneal, 10 mg/kg, 24 h).
With `[2H]C([2H])([2H])C1(C([2H])([2H])[2H])NC(=O)N(c2ccc(F)c(C(F)(F)F)c2)C1=O` the plasma concentration was 23300 ± 2790 ng/mL (male Swiss outbred mice, plasma; oral, 100 mg/kg, 1 h).
With `Cc1ccccc1C(=O)NN=Cc1ccc(O)c(Br)c1` the plasma concentration was 59.5 ng/mL (C3H/HeN mouse IN model, plasma; intravenous, 0.8 mg/kg, 30 min).
The plasma concentration of `C=C(C)[C@@H]1CCC(C)=C[C@H]1c1c(O)cc(CCC)cc1O` is reported as 562 ± 70 ng/mL (LC-MS/MS; Scn1a+/− mice, both sexes, plasma; intraperitoneal, 10 mg/kg, after hyperthermia protocol).
`C1=Cc2nc1cc1ccc([n-]1)c(-c1ccccc1)c1nc(cc3ccc([n-]3)c2-c2ccccc2)C=C1.CC(=O)[O-].[Mn+3]` gave a plasma concentration of 35 ng/mL (LC-MS/MS; Sprague-Dawley rat, plasma; oral gavage, dose not given, 120 min, individual rat Rat1).
With `Cc1ccc(S(=O)(=O)n2c(N)nc3ccccc32)cc1` the plasma concentration was 1580 ± 60 nM (mouse, plasma; intraperitoneal, 15 mg/kg, 20 min).
With `CCCCCc1cc(O)c(C/C=C(\C)CCC=C(C)C)c(O)c1C(=O)O` the plasma concentration was 13000 ± 1000 ng/mL (LC-MS/MS; Scn1a+/− mice, both sexes, plasma; intraperitoneal, 10 mg/kg, after hyperthermia protocol).
With `CCN(CC)CCCC[C@H](NC(=O)[C@H](CC(C)C)NC(=O)[C@H](C)NC(=O)[C@H](Cc1ccccc1)NC(=O)c1ccc(C(C)(C)C)cc1)C(=O)N[C@@H](CO)C(=O)OC` the plasma concentration was 0 ng/mL (male Swiss albino mice, plasma; intraperitoneal, 10 mg/kg, 8 h).
For `Cc1ccc(F)c2cc(C(=O)N[C@@H]3CCC[C@H](N4CC[C@H](N(C)S(C)(=O)=O)C4)C3)[nH]c12`, the plasma concentration was 274 ng/mL (CD1 mouse, plasma; intravenous, 1 mg/kg, 0.05 h).
`C1=Cc2nc1cc1ccc([n-]1)c(C1CC1)c1nc(cc3ccc([n-]3)c2C2CC2)C=C1.CC(=O)[O-].[Mn+3]` gave a plasma concentration of 109 ng/mL (LC-MS/MS; Sprague-Dawley rat, plasma; oral gavage, dose not given, 240 min, individual rat Rat1).
`C=C(C)[C@@H]1CCC(C)=C[C@H]1c1c(O)cc(CCC)c(C(=O)O)c1O` gave a plasma concentration of 45000 ± 6000 ng/mL (LC-MS/MS; Scn1a+/− mice, plasma; intraperitoneal, 30 mg/kg, after hyperthermia protocol).

A few entries again:
With `CCCCCc1cc(O)c(C/C=C(\C)CCC=C(C)C)c(O)c1C(=O)O` the plasma concentration was 13000 ± 1000 ng/mL (LC-MS/MS; Scn1a+/− mice, both sexes, plasma; intraperitoneal, 10 mg/kg, after hyperthermia protocol).
With `CCN(CC)CCCC[C@H](NC(=O)[C@H](CC(C)C)NC(=O)[C@H](C)NC(=O)[C@H](Cc1ccccc1)NC(=O)c1ccc(C(C)(C)C)cc1)C(=O)N[C@@H](CO)C(=O)OC` the plasma concentration was 0 ng/mL (male Swiss albino mice, plasma; intraperitoneal, 10 mg/kg, 8 h).
